Assay results of several laboratories.
Each line is one published result; not all experiments were run side by side. Several values in a cell are separate wells, animals, samples, runs or records. ± gives the spread as reported. Converted amounts (≈) assume the structure as drawn.

SMILES | organism | assay | test system | setting | scale | endpoint | value
COC1C=COC2(C)Oc3c(C)c(O)c4c(c3C2=O)C2=NC3(CCN(CC(C)C)CC3)NC2=C(NC(=O)C(C)=CC=CC(C)C(O)C(C)C(O)C(C)C(OC(=O)Nc2cccnn2)C1C)C4=O (centres unmarked) | Mycobacteroides abscessus | bacterial growth | subsp. massiliense clinical isolate | slow grower |  | IC50 | 9 nM
NCc1ccc(NC(=O)c2cc(-c3ccccc3)n(-c3ccccc3)n2)cc1 | Dengue virus | viral replication, inhibitor, imaging | Vero, DENV2 | 12.5 µM |  | inhibition | < 50%
COC(=O)c1cnc(-c2cnccn2)cc1C(=O)OC.COC(=O)c1cnc(-c2cnccn2)cc1C(=O)OC.F[P-](F)(F)(F)(F)F.[Ag+] | Candida albicans | biofilm formation, crystal violet staining | ATCC 10231 | 3.5 µg/mL |  | inhibition | 51 ± 5%
FC(F)(F)c1cccc(CNc2nc(NC3CCN(Cc4ccccc4)CC3)c3nc[nH]c3n2)c1 | Cryptococcus neoformans | RNA-seq, measured: PLC2 (CNAG_02968) mRNA |  | 48 µg/mL, 3 h | reference: untreated wild type | log2 fold change | 0.206
CC(C)(C)NCC(SS(=O)(=O)O)c1ccccc1 (centres unmarked) | Schistosoma mansoni | perfusion day 57 | infected Swiss Webster mice | 200 mg/kg daily x4, dosing from day 7 |  | liver weight | 1.73 g and 2.04 g and 1.89 g and 1.65 g and 2.38 g
N=C(N)NCCC[C@@H]1NC(=O)[C@H](CCCNC(=N)N)NC(=O)[C@@H](CCCNC(=N)N)NC(=O)[C@@H](CCCNC(=N)N)NC(=O)[C@@H](C(c2ccccc2)c2ccccc2)NC(=O)[C@H](Cc2c[nH]c3ccccc23)NC(=O)[C@@H](C(c2ccccc2)c2ccccc2)NC1=O | Candida albicans |  | ATCC 60193 | 4 x MIC, 8 h |  | reduction of viable cells | > 85%
CCC1(CC)CC(=O)N(C2c3cc(C(=O)NC4c5ccccc5CC4O)ccc3OC2(C)COC)C(=N)N1 (centres unmarked) | Plasmodium falciparum |  | 3D7 | 10 × EC50, 120 h, 99% clearance |  | parasite clearance time | 54.5 h
COC(=O)[C@H](C)NC(=O)c1ccccc1NC(=O)[C@H](Cc1ccc(OC(C)(C)C)cc1)N(C)C(=O)[C@@H](NC(=O)OCc1ccccc1)C(C)C | Candida albicans | potentiator, broth microdilution | ATCC 90029 | 4.0 µg/mL, with: amphotericin B | reference: amphotericin B alone | fold potentiation | 32
Fc1ccc2c(c1)c1nc3ccc(Br)cc3c-1cn2Cc1cn(-c2ccccc2I)nn1 | Giardia duodenalis trophozoites | UHPLC-Q-TOF-MS metabolomics, measured: 1-heptadecanoyl-sn-glycero-3-phosphocholine |  | IC50, 0.1535 h | reference: 0.25% DMSO | fold change | 1.59
C=C[C@]1(C)C[C@@H](OC(=O)CSc2ccc(NC(=O)c3ccco3)cc2)[C@]2(C)[C@H](C)CC[C@]3(CCC(=O)[C@H]32)[C@@H](C)[C@@H]1O | Mycoplasma gallisepticum |  | infected chickens, lung | intramuscular |  | bactericidal dose | > 60 mg/kg
NC(=O)c1cccc(NC(=O)c2cc(-c3ccccc3)n(-c3ccccc3)n2)c1 | Dengue virus | viral replication, inhibitor, imaging | Vero, DENV2 | 12.5 µM |  | inhibition | < 50%
CC(=O)C(C)(c1c[nH]c2ccccc12)c1c[nH]c2ccccc12 | Clostridioides difficile | microbial growth, absorbance |  |  |  | IC50 | > 50000 nM
C[N+](C)(C)CCO.O=C([O-])C(Cl)Cl | Xanthium sibiricum |  |  | 15 mg/mL, 21 days, pre-emergence, greenhouse |  | herbicidal inhibition | 0%
CC1(C)C(NC(=O)C(=NOCC(=O)N2CC3CCCC3C2C(=O)O)c2csc(N)n2)C(=O)N1OS(=O)(=O)O (centres unmarked) | Citrobacter freundii | agar dilution | ATCC 43864, susceptible |  |  | MIC | 1 µg/mL (≈ 1.74 µM)
CN(Cc1ccc(C2(C(F)(F)F)CCC2)cc1)Cc1cccc2ccccc12 | Trichophyton mentagrophytes | microbial growth, disc diffusion | ATCC18748 | 0.032 µg/mL, 72 h |  | inhibition zone | 25.5 mm
c1ccc2c(Cc3c[nH]c4ccccc34)c[nH]c2c1 | Clostridioides difficile | microbial growth, absorbance |  |  |  | IC50 | > 50000 nM
CCCCNCCO.O=C(O)C(Cl)Cl | Xanthium sibiricum |  |  | 15 mg/mL, 21 days, post-emergence, greenhouse |  | herbicidal inhibition | 0%
COC1C=COC2(C)Oc3c(C)c(O)c4c(c3C2=O)C2=NC3(CCN(CC(C)C)CC3)NC2=C(NC(=O)C(C)=CC=CC(C)C(O)C(C)C(O)C(C)C(OC(=O)Nc2cnccn2)C1C)C4=O (centres unmarked) | Mycobacteroides abscessus | bacterial growth | subsp. abscessus K21 clinical isolate |  |  | IC50 | 19 nM
C=C(NC(=O)c1csc(-c2nc3c(cc2O)-c2nc(cs2)C(=O)NC(C(C)O)C(=O)NC(=C(C)OC)c2nc(cs2)C(=O)NC2c4nc(cs4)C(=O)NC(COC(=O)c4c5c6c(cccc6n4O)COC(=O)C(OC4CC(C)(O)C(N(C)C)C(C)O4)C2OC5)c2nc-3cs2)n1)C(N)=O (centres unmarked) | Staphylococcus aureus |  | MRSA, 10 isolates | pH 8.5 |  | MIC50 | 0.0312 µg/mL (≈ 0.0217 µM)
CNCc1ccc2c(c1)N(C(=O)OCc1c(F)c(F)c(F)c(F)c1F)[C@H](CNC(=N)N)[C@H]2NC(=O)C(=O)Nc1ccc(Cl)c(F)c1 | HIV-1 | pseudovirus infection, Env pseudovirus neutralisation | TZM-bl, clade C |  |  | IC50 | 587 nM
CCCCCCCCCC(=O)N[C@@H](Cc1c[nH]c2ccccc12)C(=O)N[C@H](CC(N)=O)C(=O)N[C@@H](CC(=O)O)C(=O)N[C@@H]1C(=O)NCC(=O)N[C@@H](CCCNC(=O)OC2/C=C/CCCCC2)C(=O)N[C@@H](CC(=O)O)C(=O)N[C@H](C)C(=O)N[C@@H](CC(=O)O)C(=O)NCC(=O)N[C@H](CO)C(=O)N[C@@H]([C@H](C)CC(=O)O)C(=O)N[C@@H](CC(=O)c2ccccc2N)C(=O)O[C@@H]1C (some centres unmarked) | Staphylococcus aureus | isothermal microcalorimetry | MSSA | 3.0 µg/mL, 24 h, 37 °C |  | peak heat flow | 0 µW
CN(C(=O)[C@H](Cc1ccccc1)NC(=O)Cc1c[nH]c2ccc(O)cc12)c1ccc(Cl)cc1 | human immunodeficiency virus 1 | viral replication | NL4-3 with subtype B gag/pol |  |  | EC50 | 26 ± 5 nM
C#CCO/N=C(\C(=O)N[C@@H]1C(=O)N(OS(=O)(=O)O)C1(C)C)c1nsc(N)n1 | Citrobacter freundii | agar dilution | ATCC 43864, susceptible |  |  | MIC | 8 µg/mL (≈ 19.1 µM)
Cc1cccc2c1N(C(=O)n1ccnn1)CC2 | Arabidopsis thaliana |  | kai2 mutant, seeds | 3 µM, 72 h |  | germination rate | 66.7% and 68% and 80.8% and 75% and 71.7% and 78%
c1ccc(CN2CCOCCOCCN(CCCCCCCCCCCCN3CCOCCOCCN(CCCCCCCCCCCCN4CCOCCOCCN(Cc5ccccc5)CCOCCOCC4)CCOCCOCC3)CCOCCOCC2)cc1 | Klebsiella pneumoniae | checkerboard | ATCC BAA-2146 | half MIC, with: tetracycline |  | FIC index | 0.63
CC(C)=CCC/C(C)=C/CC/C(C)=C/Cc1c(O)cc(CO)c(C=O)c1O | Stachybotrys chartarum |  |  | 30 min, pH 7.0, 25 °C |  | kcat | 0.158 s⁻¹
Cc1cc(C(=O)Nc2nc3cccc(C)c3n2[C@H]2CCCCN(C(=O)/C=C/CN(C)C)C2)ccn1 | Trypanosoma brucei brucei |  | Lister 427 | 16.67 µM, 24 h, kill kinetics |  | proliferation | 3.71% and 4.9% and 1.71% and 4.36% and 2.8% and 2.96%
CC1(C)[C@H](NC(=O)/C(=N\OCc2c(Cl)cccc2Cl)c2csc(N)n2)C(=O)N1OS(=O)(=O)O | Providencia rettgeri | agar dilution | ATCC 31052, susceptible |  |  | MIC | ≤ 0.03 µg/mL
Cc1[nH]c2ccccc2c1CC(=O)N[C@@H](Cc1ccccc1)C(=O)N(C)c1ccccc1 | human immunodeficiency virus 1 | viral replication | NL4-3 with subtype B gag/pol |  |  | EC50 | 410 ± 30 nM

For quick reference, copied from above:
SMILES | organism | assay | test system | setting | scale | endpoint | value
FC(F)(F)c1cccc(CNc2nc(NC3CCN(Cc4ccccc4)CC3)c3nc[nH]c3n2)c1 | Cryptococcus neoformans | RNA-seq, measured: PLC2 (CNAG_02968) mRNA |  | 48 µg/mL, 3 h | reference: untreated wild type | log2 fold change | 0.206
CC(C)=CCC/C(C)=C/CC/C(C)=C/Cc1c(O)cc(CO)c(C=O)c1O | Stachybotrys chartarum |  |  | 30 min, pH 7.0, 25 °C |  | kcat | 0.158 s⁻¹
COC(=O)c1cnc(-c2cnccn2)cc1C(=O)OC.COC(=O)c1cnc(-c2cnccn2)cc1C(=O)OC.F[P-](F)(F)(F)(F)F.[Ag+] | Candida albicans | biofilm formation, crystal violet staining | ATCC 10231 | 3.5 µg/mL |  | inhibition | 51 ± 5%
CC1(C)C(NC(=O)C(=NOCC(=O)N2CC3CCCC3C2C(=O)O)c2csc(N)n2)C(=O)N1OS(=O)(=O)O (centres unmarked) | Citrobacter freundii | agar dilution | ATCC 43864, susceptible |  |  | MIC | 1 µg/mL (≈ 1.74 µM)
